Experimental data pooled from the literature.
Each numbered part is a random draw from the data of one study; scales do not carry over between parts.
Sequence of UniProt Q6XUX3 (whole entry, looked up): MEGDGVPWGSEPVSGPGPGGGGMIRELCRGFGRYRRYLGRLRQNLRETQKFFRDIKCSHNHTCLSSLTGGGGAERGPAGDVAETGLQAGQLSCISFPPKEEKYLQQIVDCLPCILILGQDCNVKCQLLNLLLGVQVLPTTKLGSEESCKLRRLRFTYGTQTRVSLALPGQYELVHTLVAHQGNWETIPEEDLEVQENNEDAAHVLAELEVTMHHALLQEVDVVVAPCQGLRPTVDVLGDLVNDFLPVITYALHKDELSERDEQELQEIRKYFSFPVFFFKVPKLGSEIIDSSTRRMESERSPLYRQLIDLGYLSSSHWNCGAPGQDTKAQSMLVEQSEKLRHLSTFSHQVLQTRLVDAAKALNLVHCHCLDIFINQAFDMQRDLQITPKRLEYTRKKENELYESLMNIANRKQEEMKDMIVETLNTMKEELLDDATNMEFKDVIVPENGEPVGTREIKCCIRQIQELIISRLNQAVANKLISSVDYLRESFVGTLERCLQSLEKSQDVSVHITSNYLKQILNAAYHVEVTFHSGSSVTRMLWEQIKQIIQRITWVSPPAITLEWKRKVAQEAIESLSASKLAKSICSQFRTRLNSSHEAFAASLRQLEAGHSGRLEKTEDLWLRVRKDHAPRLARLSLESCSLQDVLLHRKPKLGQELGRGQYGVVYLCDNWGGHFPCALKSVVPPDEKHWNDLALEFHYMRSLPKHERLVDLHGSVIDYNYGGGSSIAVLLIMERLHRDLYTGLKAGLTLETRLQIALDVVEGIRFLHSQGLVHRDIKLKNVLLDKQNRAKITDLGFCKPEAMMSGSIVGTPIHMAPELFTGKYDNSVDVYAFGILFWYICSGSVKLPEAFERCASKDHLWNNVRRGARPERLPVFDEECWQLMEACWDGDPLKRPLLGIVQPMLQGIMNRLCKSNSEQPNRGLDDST
Sequence of UniProt Q13705 (whole entry, looked up): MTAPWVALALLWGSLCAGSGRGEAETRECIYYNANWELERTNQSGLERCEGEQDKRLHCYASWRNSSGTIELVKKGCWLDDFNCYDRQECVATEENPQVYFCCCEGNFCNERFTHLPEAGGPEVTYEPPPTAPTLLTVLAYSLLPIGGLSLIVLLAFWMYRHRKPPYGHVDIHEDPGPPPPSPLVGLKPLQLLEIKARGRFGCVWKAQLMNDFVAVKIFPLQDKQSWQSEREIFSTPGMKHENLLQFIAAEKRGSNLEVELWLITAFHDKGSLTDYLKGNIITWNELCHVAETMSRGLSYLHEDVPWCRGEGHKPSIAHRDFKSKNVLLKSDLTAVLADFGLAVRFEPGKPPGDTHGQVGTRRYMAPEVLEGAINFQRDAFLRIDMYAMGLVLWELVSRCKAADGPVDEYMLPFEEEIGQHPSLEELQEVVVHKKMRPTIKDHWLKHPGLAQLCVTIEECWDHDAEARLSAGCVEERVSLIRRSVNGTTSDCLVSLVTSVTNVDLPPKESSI
Sequence of UniProt Q05397 (whole entry, looked up): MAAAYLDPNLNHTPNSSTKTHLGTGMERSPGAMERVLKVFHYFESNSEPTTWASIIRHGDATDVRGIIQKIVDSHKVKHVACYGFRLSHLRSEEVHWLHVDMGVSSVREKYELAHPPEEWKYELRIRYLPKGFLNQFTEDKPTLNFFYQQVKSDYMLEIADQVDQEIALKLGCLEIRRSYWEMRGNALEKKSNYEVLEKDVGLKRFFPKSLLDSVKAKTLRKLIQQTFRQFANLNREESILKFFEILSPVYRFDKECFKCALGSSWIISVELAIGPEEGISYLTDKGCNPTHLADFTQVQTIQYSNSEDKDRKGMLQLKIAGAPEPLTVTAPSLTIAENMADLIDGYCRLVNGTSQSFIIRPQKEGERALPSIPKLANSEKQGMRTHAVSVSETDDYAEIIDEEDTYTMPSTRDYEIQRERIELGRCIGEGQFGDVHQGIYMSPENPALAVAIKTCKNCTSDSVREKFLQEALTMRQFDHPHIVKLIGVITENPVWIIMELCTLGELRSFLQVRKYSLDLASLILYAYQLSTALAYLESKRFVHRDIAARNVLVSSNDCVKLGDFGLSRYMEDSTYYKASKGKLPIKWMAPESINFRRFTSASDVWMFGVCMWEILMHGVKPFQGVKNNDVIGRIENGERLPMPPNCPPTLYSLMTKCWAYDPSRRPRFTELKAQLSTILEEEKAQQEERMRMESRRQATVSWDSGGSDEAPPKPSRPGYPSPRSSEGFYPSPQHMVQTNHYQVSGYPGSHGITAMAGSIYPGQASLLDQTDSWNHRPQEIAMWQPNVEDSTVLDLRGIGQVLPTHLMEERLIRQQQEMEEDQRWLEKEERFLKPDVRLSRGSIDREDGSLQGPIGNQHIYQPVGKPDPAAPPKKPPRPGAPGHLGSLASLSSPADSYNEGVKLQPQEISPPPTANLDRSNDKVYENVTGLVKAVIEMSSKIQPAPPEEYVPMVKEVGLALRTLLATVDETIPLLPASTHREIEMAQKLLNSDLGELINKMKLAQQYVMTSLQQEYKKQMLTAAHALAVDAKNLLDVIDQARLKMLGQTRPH
Sequence of UniProt Q9UQB9 (whole entry, looked up): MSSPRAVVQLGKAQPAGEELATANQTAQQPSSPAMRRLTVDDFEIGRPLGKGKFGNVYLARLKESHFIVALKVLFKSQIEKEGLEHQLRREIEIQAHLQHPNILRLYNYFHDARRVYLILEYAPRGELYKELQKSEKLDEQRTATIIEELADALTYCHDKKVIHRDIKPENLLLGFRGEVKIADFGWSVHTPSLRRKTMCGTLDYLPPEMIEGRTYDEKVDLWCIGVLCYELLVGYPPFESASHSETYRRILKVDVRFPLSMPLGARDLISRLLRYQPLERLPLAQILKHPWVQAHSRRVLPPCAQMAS
Sequence of UniProt Q9BQI3 (whole entry, looked up): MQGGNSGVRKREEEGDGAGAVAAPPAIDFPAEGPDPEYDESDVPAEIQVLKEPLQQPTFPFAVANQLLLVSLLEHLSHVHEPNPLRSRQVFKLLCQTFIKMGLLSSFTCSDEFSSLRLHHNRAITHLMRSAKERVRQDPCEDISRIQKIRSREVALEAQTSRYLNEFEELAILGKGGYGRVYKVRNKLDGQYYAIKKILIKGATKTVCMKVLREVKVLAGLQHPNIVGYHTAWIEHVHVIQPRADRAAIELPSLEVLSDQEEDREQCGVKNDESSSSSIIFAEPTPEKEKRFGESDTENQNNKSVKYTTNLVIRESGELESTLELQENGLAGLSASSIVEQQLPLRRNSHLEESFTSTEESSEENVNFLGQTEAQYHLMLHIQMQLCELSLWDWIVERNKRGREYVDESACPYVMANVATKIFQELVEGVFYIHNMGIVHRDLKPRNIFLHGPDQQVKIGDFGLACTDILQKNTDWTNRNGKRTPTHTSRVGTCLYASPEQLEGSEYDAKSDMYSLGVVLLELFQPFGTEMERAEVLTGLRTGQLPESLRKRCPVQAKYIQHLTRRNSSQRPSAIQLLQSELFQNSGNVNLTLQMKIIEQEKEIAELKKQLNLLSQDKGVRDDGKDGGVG
Sequence of UniProt Q8WXR4 (whole entry, looked up): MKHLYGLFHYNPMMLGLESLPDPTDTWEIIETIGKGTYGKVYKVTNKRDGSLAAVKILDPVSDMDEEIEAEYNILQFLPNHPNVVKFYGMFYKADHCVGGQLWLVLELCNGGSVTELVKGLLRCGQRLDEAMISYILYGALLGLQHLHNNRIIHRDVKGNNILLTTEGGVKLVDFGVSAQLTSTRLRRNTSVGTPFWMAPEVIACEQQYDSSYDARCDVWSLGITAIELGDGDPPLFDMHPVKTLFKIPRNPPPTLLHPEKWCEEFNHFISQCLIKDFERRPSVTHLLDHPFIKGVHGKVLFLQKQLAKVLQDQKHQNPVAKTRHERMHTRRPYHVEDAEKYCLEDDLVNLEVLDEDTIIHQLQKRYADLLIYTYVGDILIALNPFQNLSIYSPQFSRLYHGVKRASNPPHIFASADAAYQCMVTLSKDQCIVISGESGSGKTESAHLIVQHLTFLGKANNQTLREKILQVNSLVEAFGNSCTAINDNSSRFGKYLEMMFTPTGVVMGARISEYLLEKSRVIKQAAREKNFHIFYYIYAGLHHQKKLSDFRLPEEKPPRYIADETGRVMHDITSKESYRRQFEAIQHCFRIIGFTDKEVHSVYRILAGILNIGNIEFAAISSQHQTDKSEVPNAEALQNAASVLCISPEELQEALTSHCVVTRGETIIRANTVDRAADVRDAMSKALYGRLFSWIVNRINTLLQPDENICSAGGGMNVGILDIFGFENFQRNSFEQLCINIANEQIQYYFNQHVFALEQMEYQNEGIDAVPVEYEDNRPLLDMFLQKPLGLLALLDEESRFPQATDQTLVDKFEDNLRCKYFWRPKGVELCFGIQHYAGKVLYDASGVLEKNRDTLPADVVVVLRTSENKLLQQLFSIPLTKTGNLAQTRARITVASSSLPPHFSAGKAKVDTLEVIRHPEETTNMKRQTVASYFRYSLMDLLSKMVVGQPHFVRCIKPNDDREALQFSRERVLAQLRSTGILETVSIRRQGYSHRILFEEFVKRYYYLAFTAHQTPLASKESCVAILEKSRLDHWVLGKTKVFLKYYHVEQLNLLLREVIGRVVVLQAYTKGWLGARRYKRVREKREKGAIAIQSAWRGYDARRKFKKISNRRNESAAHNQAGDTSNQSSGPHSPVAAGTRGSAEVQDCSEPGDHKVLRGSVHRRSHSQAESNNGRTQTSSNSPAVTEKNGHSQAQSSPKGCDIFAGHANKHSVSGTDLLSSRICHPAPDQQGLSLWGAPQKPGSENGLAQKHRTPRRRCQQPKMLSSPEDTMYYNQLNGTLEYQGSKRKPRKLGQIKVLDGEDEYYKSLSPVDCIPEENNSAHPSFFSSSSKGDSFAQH

Block 1
Compound: COc1ccc2c(c1)O[C@@H](c1ccc(OC)c(OC)c1)C[C@H]2NC(=O)C1(c2ccc3c(c2)OC(F)(F)O3)CC1
Technique: competition with immobilised ligand
Concentration: 1 µM
target | effect on | remaining binding [%]
FLT3 (Homo sapiens, UniProt P36888, D835V/ITD) | cell-free assay | 65
ITK (Homo sapiens, UniProt Q08881) | cell-free assay | 86
OXSR1 (Homo sapiens, UniProt O95747) | cell-free assay | 90
RIOK2 (Homo sapiens, UniProt Q9BVS4) | cell-free assay | 100
Myosin-IIIb (MYO3B, Homo sapiens, UniProt Q8WXR4) | binding | 100
PRKG2 (Homo sapiens, UniProt Q13237) | cell-free assay | 96
ACVR2B (Homo sapiens, UniProt Q13705) | cell-free assay | 96
Non-receptor tyrosine-protein kinase TYK2, JH2 (TYK2, Homo sapiens, UniProt P29597) | cell-free assay | 91
Aurora kinase C (AURKC, Homo sapiens, UniProt Q9UQB9) | cell-free assay | 100
PTK2 (Homo sapiens, UniProt Q05397) | cell-free assay | 94
HASPIN (Homo sapiens, UniProt Q8TF76) | cell-free assay | 81
MAP4K1 (Homo sapiens, UniProt Q92918) | cell-free assay | 90
EIF2AK1 (Homo sapiens, UniProt Q9BQI3) | cell-free assay | 98
DSTYK (Homo sapiens, UniProt Q6XUX3) | cell-free assay | 76
MERTK (Homo sapiens, UniProt Q12866) | cell-free assay | 95

Block 2
Cell line: mouse MPNST tumor cells
Technique: high-content immunofluorescence imaging
Measured: nuclear SOX9
Concentration: 10 µM
Time: 12 h
Notes: mean of 2 replicates
Baseline: DMSO control
Direction: higher = more nuclear SOX9
SMILES | nuclear SOX9 intensity
Nc1nc(=O)c2c([nH]1)NC[C@@H](CNc1ccc(C(=O)N[C@@H](CCC(=O)O)C(=O)O)cc1)N2C=O | 96.8 % of DMSO
CC(C)(N)C(=O)N[C@H](COCc1ccccc1)C(=O)N1CCC2(CC1)CN(S(C)(=O)=O)c1ccccc12 | 106 % of DMSO
CN1c2ccc([N+](=O)[O-])cc2N=C(c2ccc(C(=O)O)cc2)c2cc3c(cc21)C(C)(C)CCC3(C)C | 116 % of DMSO

Block 3
SMILES: CC(C)n1cnc(-c2ccc(F)cc2)c1-c1ncc(C(=O)Nc2ccc(N3CCN(C)CC3)cc2)[nH]1
Dose: 60 mg once daily
technique | measured | host | notes | patients with TEAE [%]
phase 2a trial |  | patients with idiopathic pulmonary fibrosis | nervous system disorders SOC, grade 4 | 0
 | skin papilloma | idiopathic pulmonary fibrosis patients |  | 0
phase 2a trial |  | patients with idiopathic pulmonary fibrosis | free thyroxine decreased, grade 4 | 0

Block 4
Target: Prothrombin, mature alpha-thrombin (F2, Homo sapiens, UniProt P00734)
Technique: aptamer microarray, sandwich
Form: DNA with 2'F-ANA
Medium: in vitro
Concentration: 200 nM
Notes: whole 15-mer aptamer, many near background
Together with: Cy3 exosite-II aptamer, 400 nM
Direction: higher = stronger binding
Oligonucleotide: GGTTGGTGTGGTTGG
Modification | mean fluorescence intensity
2'F-ANA at 3 5 8 10 12 13 14 15 | 65.3 a.u.
2'F-ANA at 2 3 4 5 8 9 11 12 13 14 15 | 57.2 a.u.
2'F-ANA at 1 4 6 9 11 12 13 14 15 | 50.9 a.u.
2'F-ANA at 1 3 4 5 6 9 10 11 12 15 | 73.4 a.u.
2'F-ANA at 2 3 7 12 15 | 1070 a.u.
2'F-ANA at 1 2 3 6 7 10 13 | 62.2 a.u.
2'F-ANA at 3 5 6 8 10 13 14 15 | 61.3 a.u.
2'F-ANA at 1 3 5 7 8 9 11 13 15 | 54.7 a.u.

Single results of other studies
Structure (SMILES) | host | medium | concentration | time | endpoint | result
COC(=O)c1ccc(COc2ccc(-c3nnn[nH]3)cc2)cc1 | human | microsomes or S9 | 2 µM | 0.5 h | remaining compound | 0.345%
